Assay results gathered from unrelated publications.
Numbers after ± are the reported error.
CDK2 with cyclin A: Cyclin-dependent kinase 2, with cyclin A (CDK2, Homo sapiens, UniProt P24941)
UniProt Q14416, sequence (whole entry, looked up): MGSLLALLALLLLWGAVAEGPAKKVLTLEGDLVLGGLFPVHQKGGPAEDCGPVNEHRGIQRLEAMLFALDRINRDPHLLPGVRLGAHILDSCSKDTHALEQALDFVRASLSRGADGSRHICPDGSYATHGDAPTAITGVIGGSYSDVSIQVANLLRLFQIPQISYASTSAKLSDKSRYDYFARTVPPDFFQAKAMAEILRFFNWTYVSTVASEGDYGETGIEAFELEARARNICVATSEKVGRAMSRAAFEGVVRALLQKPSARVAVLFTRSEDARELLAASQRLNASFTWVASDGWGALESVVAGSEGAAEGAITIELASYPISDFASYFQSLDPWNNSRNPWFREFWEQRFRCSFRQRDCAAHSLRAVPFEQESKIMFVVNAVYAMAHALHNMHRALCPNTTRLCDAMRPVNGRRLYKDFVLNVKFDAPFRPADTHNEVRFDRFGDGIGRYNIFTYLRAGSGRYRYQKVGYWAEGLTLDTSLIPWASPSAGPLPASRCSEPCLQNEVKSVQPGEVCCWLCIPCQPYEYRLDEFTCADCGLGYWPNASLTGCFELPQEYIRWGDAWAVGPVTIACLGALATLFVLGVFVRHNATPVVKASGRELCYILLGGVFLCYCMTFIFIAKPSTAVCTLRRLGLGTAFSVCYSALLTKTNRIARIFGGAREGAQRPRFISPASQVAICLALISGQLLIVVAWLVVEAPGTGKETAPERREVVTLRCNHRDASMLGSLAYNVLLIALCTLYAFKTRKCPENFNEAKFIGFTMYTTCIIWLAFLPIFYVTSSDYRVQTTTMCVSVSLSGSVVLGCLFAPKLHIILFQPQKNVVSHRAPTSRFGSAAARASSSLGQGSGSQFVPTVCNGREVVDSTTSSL

Structure (SMILES) = CCCCCC(=O)OCn1cc(F)c(=O)[nH]c1=O; test = metabolic stability; test system = Sprague-Dawley rat, liver; conditions = 80 µg/mL; quantity = half-life; value = < 4.98 min
Structure (SMILES) = O=C(O)COc1ccc(Br)cc1C=NNC(=O)Cc1ccccc1 (mixture of isomers); test system = mouse, serum; conditions = oral, 100 mg/kg, 48 h; quantity = CK-MB; value = 42.6 ± 11 U/L
Structure (SMILES) = N#Cc1c(-c2ccc(OCC3CC3)c(Cl)c2)ccn2c(CC(F)(F)F)cnc12; tested on = Metabotropic glutamate receptor 2 (GRM2, Homo sapiens, UniProt Q14416); test = agonist; conditions = no glutamate; quantity = EC50; value = 1700 nM
Structure (SMILES) = COc1cc(-c2ccc3nc(NC(=O)C4CCCCC4)nn3c2)ccc1O; tested on = CDK2 with cyclin A; test = enzyme activity, inhibitor; quantity = IC50; value = 360 nM
Structure (SMILES) = CCOCc1nnc2c(C(F)(F)F)c(-c3ccc4[nH]ccc4c3)ccn12; test system = human liver microsomes; conditions = 5 µM, 15 min; quantity = compound metabolized; value = 52%
Structure (SMILES) = O=C1Nc2ccc(S(=O)(=O)Nc3ccccc3)cc2C1=C1CCCC1; tested on = RAW264.7; test = refers to: IL-1β; conditions = concentration not given, with: LPS 100 ng/mL, 24 h; quantity = mRNA level; value = decreased
Structure (SMILES) = Cc1cccc(-c2ccc3nc(NC(=O)C4CCCNC4)nn3c2)c1 (stereo not drawn); tested on = CDK2 with cyclin A; test = enzyme activity, inhibitor; quantity = IC50; value = > 100000 nM
Structure (SMILES) = CC(C)C[C@H](NC(=O)[C@@H](NC(=O)[C@H](CCONC(=N)N)NC(=O)OCc1ccccc1)C1CCCCC1)[C@@H](O)CC(=O)NCCc1ccccc1; tested on = Plasmodium falciparum; test = parasite growth, LDH; test system = 3D7 after resistance selection; quantity = EC50; value = 110 nM
Structure (SMILES) = C=CCCCC(C)(NC(=O)[C@H](Cc1c[nH]cn1)NC(=O)[C@@H](N)CC(=O)O)C(=O)N[C@@H](CC(N)=O)C(=O)N1CCC[C@H]1C(=O)N[C@@H](CCC(N)=O)C(=O)N[C@H](C(=O)N[C@@H](CCCNC(=N)N)C(N)=O)[C@@H](C)CC (stereo partly drawn); tested on = A549; test = MTT; conditions = up to 160 µM, 48 h; quantity = cytotoxicity; value = not toxic
